Measurements from different studies.
Parts stem from different laboratories: compare values within a part only. Changes are numbered by the printed parent chain.

Study 1
Target: RNA binding protein fox-1 homolog 2, RRM domain, GST-SBP tag (RBFOX2, Homo sapiens, UniProt O43251-10, residues 100-194)
Method: RNA Bind-n-Seq
Form: RNA
Matrix: in vitro
Concentration: 365 nM
Setting: natural RNA segment, single round, ends assumed
Reference: no-protein control
Direction: higher = stronger binding
Quantity: RBNS enrichment (R)
Constant ends, left off below: GGGAGUUCUACAGUCCGACGAUC … UGGAAUUCUCGGGUGCCAA
Residues (chain): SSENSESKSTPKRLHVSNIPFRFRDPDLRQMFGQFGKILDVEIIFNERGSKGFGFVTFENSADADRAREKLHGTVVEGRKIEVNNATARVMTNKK
CUUUAUCUCAUAAUCUUCCAGUACAUAUGCUCUCAGUUGGGAUAGCAGUUCAUUUCCAUUAGGCAGACGUAUAAACUAAGGAAUGUUAGUCUGCAGUAUUCAUUUUAAAA: 0.83
CAAGUAGCACCGUUCCUGCCCAGUGGGAAAGCAAUCCCAACAUGUCUGAGAUGUUCGGACUUUUAAAUUCAUGUAAAUAUCUCCUCUUCUGCUGUGUGUACAUAGGACUA: 0.389
CUCUUUUUAUGCAGAUAUUUGUGACCUUCAUCUUGCACAUACAACCAAAUUAUUUUAAGGUGCAUAGCACAAAGAUGUAUGCAAACAACUGUUUUAAAUCAGGUCUGAUA: 0.413
GGUCAUUUUUUGUAAUUUUCUUUUUAAUUACUUUAGAGAGCUAGGGAUGCAAAUGUUUUCAGUUAGAAAGCCUUUAUUUACUUUUGGAAAUUGAACAAGAAAUGCAUCUG: 0.758
UAUCGAUAGAGGUAGAAAUGGUUUCCCUCCAAGGUUGGGUCAAUGUGUAAAUUGCUAUUCAACACUUGGAUAUUACCAGUCUGUGGUUUAAUUAUUCCUCCUAGUGAGCU: 0.245
CGAGCGGGAUCUUGAUCAUGGGGCUGGUGUAUGGAUCCACCGUCGGAUUCCGUCUGCAGAGGAGGACGUAGGGGGCCGUCACACCCACCAGGCCUCCCUGCUGUGCUUUA: 1.05
ACAUACCAGGUCAGGGAGGGCCGAUCCUUCCUCCACCUUUUUCCUGGCAUAUGUUUAAGGUAACAAAAAGAUCAGGAGUUGCCUCUGGCCUCUAAAGUGCCAAGGGACCA: 0.31
CUUACCUGUGUUAGGCCAUGUUAUUUUAUAGCGAAGUCAUGUUCGAUAGGGAUGGUAUGAAAUGCUGCUGGUGGGCUGGUAAAUCCAAAGGGAUAAGGCUUCAGUGCUGU: 0.773
GCCCAGCAGAGGCACCCCUCAUGAAGGAAGCCAUUGCACUGUGAAUACUGAACCUGCCUGCUGAACAGCCUGUCCCAUCCAUCCCUAUGAGUGACCAUCCGUCCGAAUGU: 1.42
CUAAGCAAAACCAGGUUUAGAGGCACUACCAGUACACACAGUACCUGCACACGUACAGGUCAACAGCCUUCUCCCUCCUAAGAUGGACUUAAUUCAGACAGCCACUGCUU: 0.364
AAACAGGAGAGAAAGGGGAUGUAUCCAUGGGGGCAGGGCAUGACUUUGUCCCAUUUCUAAAGGCCUCUUCCUUGCUGUGUCAUACCAGGCCGCCCCAGCCUCUGAGCCCC: 0.417
AGACCCUCCCCAAUUCUAGUUCUCCUGGUUGGAGAGGGAGGGGCCUGGCCAGCUUCAGCCUACAGCUUUAAAUUCUGUCUGCUCCUAAAUGGGUCCAAAGCUCAGUACUG: 0.337

Study 2
Target: ABI1, truncated, D143A, DHFR fusion (Arabidopsis thaliana)
Method: DHFR PCA, deep sequencing
Matrix: yeast
Setting: methotrexate growth selection, single substitutions
With: (+)-ABA 2500 µM
Reference: wild-type fitted maximum
Direction: higher = stronger binding
Quantity: relative binding score
Starting sequence: PYL1, truncated, DHFR fusion (Arabidopsis thaliana); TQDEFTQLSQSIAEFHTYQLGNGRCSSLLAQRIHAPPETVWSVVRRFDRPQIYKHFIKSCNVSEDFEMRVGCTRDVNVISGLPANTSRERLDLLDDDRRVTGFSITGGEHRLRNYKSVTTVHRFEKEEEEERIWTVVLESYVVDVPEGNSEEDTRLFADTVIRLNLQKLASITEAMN
L164V: 96%
D96F: 80%
H16L: 29.1%
L94N: 81%
N149K: 71.2%
E14M: 80.5%
F124G: 108%
Q19G: 103%
S42C: 99.8%
V143M: 93.3%
S117T: 71.2%
Y115E: -4.59%
L93W: 97.2%
S117V: 37.4%
V145Q: 89.3%

Study 3
Target: Interferon regulatory factor 7, full length, phosphomimetic (IRF7, Homo sapiens, UniProt Q92985, residues 1-503, S471D/S472D/S475D/S476D/S477D/S483D/S484D/S487D)
Method: protein-binding microarray
Form: double-stranded DNA, one strand shown
Matrix: in vitro
Concentration: 2200 nM top
Setting: 60-bp whole probe
With: salmon DNA 0.4 mg/ml
Reference: random background probes
Direction: higher = stronger binding
Quantity: fitted relative affinity
Constant ends, left off below: GCCTAGCAC … GTCTTGATTCGCTTGACGCTGCTG
Residues (chain): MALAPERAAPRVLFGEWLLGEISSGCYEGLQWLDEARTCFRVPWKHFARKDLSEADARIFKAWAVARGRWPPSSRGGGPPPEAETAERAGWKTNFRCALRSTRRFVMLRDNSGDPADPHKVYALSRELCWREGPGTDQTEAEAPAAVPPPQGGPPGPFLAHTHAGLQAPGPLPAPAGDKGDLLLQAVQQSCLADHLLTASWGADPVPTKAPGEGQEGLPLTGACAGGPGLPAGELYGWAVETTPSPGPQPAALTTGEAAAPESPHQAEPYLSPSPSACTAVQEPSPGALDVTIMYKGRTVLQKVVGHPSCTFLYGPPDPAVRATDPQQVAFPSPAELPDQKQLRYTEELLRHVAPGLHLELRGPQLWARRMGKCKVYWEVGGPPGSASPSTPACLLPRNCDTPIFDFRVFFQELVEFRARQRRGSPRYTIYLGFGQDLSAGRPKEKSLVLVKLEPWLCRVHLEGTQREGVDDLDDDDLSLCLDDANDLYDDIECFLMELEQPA
TTAGGTCTCGGTCTCGGTTGGTGCTAG: 0.813 z-score
TACGGTATCCTTCTCCTGACGTGCTAG: 1.55 z-score
TTAAATTTCAGTTTCGATTAGTGCTAG: 8.59 z-score
TTAGGTCTCATTTTCCTTTAGTGCTAG: 2.61 z-score
TTAGGCATCGACTTTCGGTTAGTGCTA: 4.76 z-score
GACGATTTCGGGTGTCGAGACGTGCTA: 2.22 z-score
TTAGGTCTGCTTATCCTTTAGTGCTAG: 0.697 z-score
GACGAACCGGGGACTGGAGACGTGCTA: -0.519 z-score
GGGCCGAGGCTGTGGCCACCGTGCTAG: -1.4 z-score
TTAGGTCTCGGTCTTGGTTAGTGCTAG: 0.666 z-score
ATTTTTTTCATTATTGTTTCGTGCTAG: 2.73 z-score
TTAGAACTCAGTATCGATTAGTGCTAG: -0.142 z-score
GACGAACTGAGACTAGAGACGTGCTAG: -0.293 z-score
TTGGATATCAGTATCGATTAGTGCTAG: 0.496 z-score
TGGGACCAGCACAGACAGTCGTGCTAG: -1.11 z-score
TCAATTTTCTAAATTCCACTGTGCTAG: 1.71 z-score
TACGGTCTCGGACTGGGGACGTGCTAG: -0.378 z-score

Other studies, line by line
PhoQ, residues 284 288 289 292 302 303 AGHLVA — fold induction (PhoP, residues 12 14 15 18 19 YHFSH (Escherichia coli, UniProt P23836); Sort-seq, refers to: YFP reporter; E. coli; PhoQ-PhoP variant library, with: 10 µM Mg2+; reference: high Mg2+ state, higher = stronger signaling): 1.29

Some of these lines once more (study 3):
TTAAATTTCAGTTTCGATTAGTGCTAG: 8.59 z-score
TTAGGTCTCATTTTCCTTTAGTGCTAG: 2.61 z-score
TTAGGCATCGACTTTCGGTTAGTGCTA: 4.76 z-score
GACGATTTCGGGTGTCGAGACGTGCTA: 2.22 z-score
TTAGGTCTGCTTATCCTTTAGTGCTAG: 0.697 z-score
GACGAACCGGGGACTGGAGACGTGCTA: -0.519 z-score
GGGCCGAGGCTGTGGCCACCGTGCTAG: -1.4 z-score
